Earlier results that unrelated publications cite.
Each line is one published result; not all experiments were run side by side.

Compound	setting	quantity	value
CNC(=O)Oc1cc(C)c(SC)c(C)c1	–	log Kow	2.92
c1cc2ccc3cccc4ccc(c1)c2c34	experimental mean	log Kow	4.88
COc1ccc2c3c1O[C@H]1[C@@H](O)CC[C@H]4[C@@H](C2)N(C)CC[C@@]341	–	log partition coefficient	1.25
C[Si](C)(C)O[Si](C)(C)O[Si](C)(C)C	–	log Kow	6.79
CN1CC[C@]23c4c5ccc(O)c4O[C@H]2[C@@H](O)CC[C@H]3[C@H]1C5	–	log partition coefficient	1.13
Cc1cc(O)ccc1Cl	–	log Kow	3.1
CCC(C)(c1ccc(O)cc1)c1ccc(O)cc1	–	log Kow	4.13
c1ccc2c(c1)Cc1ccccc1-2	experimental mean or OPERA estimate	log Kow	4.18
Fc1ccc(Oc2ccnc3cc(Cl)cc(Cl)c23)cc1	–	log Kow	4.66
Brc1ccc(Oc2c(Br)cc(Br)cc2Br)c(Br)c1	–	log Kow	7.24

Excerpt of the above:
Compound	setting	quantity	value
CNC(=O)Oc1cc(C)c(SC)c(C)c1	–	log Kow	2.92
C[Si](C)(C)O[Si](C)(C)O[Si](C)(C)C	–	log Kow	6.79
